# Experimental data from different studies.
# Lines come from different studies, so protocols differ. Values joined by “and” are separate records of one study, mostly repeats; a detail may differ. ± marks the error that the study gave.
# Cell line: A549
SMILES,observed,technique,time,setting,added,IC50
CC(C)[C@@H]1NC(=O)[C@@H](CCCNC(=N)N)NC(=O)[C@H]([C@@H](C)O)NC(=O)[C@@H](CCCN)NC(=O)[C@H](Cc2ccc(F)cc2)NC(=O)[C@@H](Cc2ccccc2)NC1=O,cell growth or viability,ATP luminescence,,,,> 100 µM
CCCc1cc2cc(-n3nc(C4CC4(F)F)c4c3CC(C)(C)CC4=O)cc(N3CCC(O)CC3)c2c(=O)[nH]1 (racemic),cell growth or viability,MTS,,,,2.36 µM
Oc1ccc(C#Cc2cccc3c2C(c2ccc(O)cc2)(c2ccc(O)cc2)c2cc(O)ccc2-3)cc1,cell growth or viability,MTT,48 h,,,13.2 µM
CO[C@@H](C[C@H]1C(C)=CC[C@@H]2[C@]3(C)C[C@H](O[C@@H]4O[C@@H](C)[C@H](OC(=O)c5cccc(O)c5)[C@@H](O[C@@H]5O[C@H](CO)[C@@H](O)[C@H](O)[C@H]5NC(C)=O)[C@H]4O)[C@@H](O)C(C)(C)[C@H]3CC[C@]21C)[C@H](N)C(=O)O,cell growth or viability,CCK-8,72 h,,,7.32 µM
O=[C]=[Mn-2]12(=[C]=O)(=[C]=O)[O]c3cc4c(cc3=[N+]1CCc1ccccc1)[O][Mn-2](=[C]=O)(=[C]=O)(=[C]=O)([N+]=4CCc1ccccc1)[n+]1ccc(cc1)C(=O)OCCOC(=O)c1cc[n+]2cc1,cell growth,MTT,48 h,LED light photolysis 1 h,,1.51 ± 0.35 µM
CC(C)OC(=O)[C@H](CO)NCc1cc(Cl)c(OCc2cccc(-c3ccccc3)c2Br)cc1OCc1cccnc1,cell growth or viability,MTT,,,,> 10 µM
CC(=O)NCCOCCNC(=O)c1cc(C(=O)N2CCNCCNCCNCC2)c(O)c(C(=O)N2CCNCCNCCNCC2)c1,cell growth or viability,MTT,24 h,,,> 1000 µM
O=C1C(Br)=C(Br)C(=O)c2ccccc21,cell growth or viability,MTT,,,,66.2 µM
Cc1nc(N(C)c2ccc3c(c2)/C(=C/c2ccccc2)C(=O)N3C)c2ccccc2n1,cell growth or viability,MTT,,,,2.18 µM
NC(=O)c1ccc(-c2ccccc2Cl)c2c3c([nH]c12)CCC(N)C3 (stereo not shown),cell growth or viability,,96 h,,,0.0268 µM
CCCCn1cnc2ccc(-c3ccc(NC(=O)CC)nc3)cc2c1=O,cell growth or viability,CCK-8,72 h,,,1.98 µM
CC(CCC(=O)[O][Pt]([NH2])([NH2])([OH])([Cl])[Cl])C1CCC2C3CCC4CC(O)CCC4(C)C3CCC12C (stereo not shown),cell growth or viability,MTT,,,,9.4 µM
CC(C)[C@@H]1NC(=O)[C@@H](CCCNC(=N)N)NC(=O)[C@H]([C@@H](C)O)NC(=O)[C@@H](CCCN)NC(=O)[C@H](Cc2ccccc2)NC(=O)[C@@H](Cc2ccc(F)c(F)c2)NC1=O,cell growth or viability,ATP luminescence,,,,71.6 µM
COC(=O)[C@@H](NC(=O)[C@@H](NC(=O)[C@@H](NC(=O)OC(C)(C)C)C(C)C)C(C)C)C(C)C,cell growth or viability,SRB,,,,1.8 µM and 1.13 µM and 0.79 µM
NC1=C(Cl)C(=O)c2ccccc2C1=O,cell growth or viability,MTT,,,,16.3 µM
CN(C)c1ccc(-c2oc3cc4ccccc4cc3c(=O)c2O)cc1,cytotoxicity,,24 h,,visible light,2 ± 1 µM
CCOc1cncc(-c2ccc(NC(=O)C3(c4ccnc(NS(=O)(=O)C5CC5)n4)CCOCC3)nc2)n1,cell growth or viability,ATP luminescence,72 h,,,3.27 µM
COc1cc(C2=CCCc3c2ccc(OC)c3OCc2ncc([N+](=O)[O-])n2C)cc(OC)c1OC,cell growth,SRB,4 h exposure then 120 h oxic,oxic exposure then drug removal,,73.4 ± 21.3 µM
CCOC(=O)/C=C1\S/C(=N\N=C\c2cccc3cc4ccccc4nc23)N(c2ccc(F)cc2)C1=O,cell growth or viability,MTT,48 h,,,> 50 µM
O=C(O)c1ccc(-c2ccc(O)cc2)c2c1C=C(c1ccc(O)cc1)OC2(c1ccc(O)cc1)c1ccc(O)cc1,cell growth or viability,MTT,48 h,,,9.61 µM
CCCCCCCCCC(=O)Oc1c(C)c(OC)c2c(c1C)OC(=O)C(CCCCCCCC)C2(O)C=Cc1ccccc1 (stereo not shown),cell growth or viability,SRB,72 h,,,> 50 µM
CC(C)c1ccc(N(C)c2ccc3c(c2)OCC[C@H]3CNc2cnccc2C(=O)O)cc1,cell growth or viability,ATP luminescence,7 days,,,0.0324 µM
COc1c(C)c(OCc2ccccc2)c(C)c(OCc2ccccc2)c1C(=O)/C=C/c1ccccc1,cell growth or viability,SRB,72 h,,,> 50 µM
CCCCCC(=O)[O][Pt]([Cl])([Cl])[O]C(=O)CCCCC.N.N,cell growth or viability,MTT,,,,~0.02 µM and 0.02 µM
CN1CCC(N[C@H]2CCc3[nH]c4c(C(N)=O)ccc(-c5ccccc5Cl)c4c3C2)CC1,cell growth or viability,,,,,2.27 µM
Cc1sc2c(c1C)C(c1ccc(Cl)cc1)=N[C@@H](CC(=O)NCCN(C)CCCCNC(=O)CCCCOc1cccc3c1C(=O)N([C@H]1CCC(=O)NC1=O)C3=O)c1nnc(C)n1-2,cell growth or viability,CCK-8,72 h,,,> 10 µM
Cc1ccccc1/C=C/C(=O)N[C@@H](CO)C(=O)N[C@H](C(=O)N[C@H](Cc1ccccc1)C(=O)O)[C@@H](C)O,,,,,,> 20 µM
Cc1nc(N(C)c2ccc3c(c2)/C(=C/c2cn(C)c4ccccc24)C(=O)N3C)c2ccccc2n1,cell growth or viability,MTT,,,,3.83 µM
C=CC(=O)N1CCc2ccc(-n3c(=O)ccc4cnc5ccc(-c6cnn(C)c6)cc5c43)cc21,cell growth or viability,,,,,2.73 µM
COC(CC1C(C)=CCC2C1(C)CCC1C(C)(C)C(O)C(O)CC12C)C(N)C(=O)O (stereo not shown),cell growth or viability,CCK-8,72 h,,,> 10 µM
CCCCCCCCCCCC(=O)Oc1c(C)c(OC)c2c(/C=C/c3ccccc3)c(CCCCCCCCCC)c(=O)oc2c1C,cell growth or viability,SRB,72 h,,,> 50 µM
CCCc1cc2cc(-n3c4c(c5ccccc53)C(=O)CC(C)(C)C4)cc(N3CCC(O)CC3)c2c(=O)[nH]1,cell growth or viability,MTS,,,,4.21 µM
COc1cccc(N2C(=O)CS/C2=N\N=C\c2cccc3cc4ccccc4nc23)c1,cell growth or viability,MTT,48 h,,,40.8 µM
O=S(=O)(c1ccc2c(c1)OCO2)n1cc(CCCCN2CCC(=C(c3ccc(F)c(F)c3)c3ccc(F)c(F)c3)CC2)nn1,cell growth or viability,ATP luminescence,48 h,,,5.25 µM
CC(C)CN1C(=O)CS/C1=N\N=C\c1cccc2cc3ccccc3nc12,cell growth or viability,MTT,48 h,,,> 50 µM
Cc1ccc(C(C)C)cc1.Cc1ccc(C(C)C)cc1.Cc1ccc(C(C)C)cc1.Cc1ccc(C(C)C)cc1.O=S(=O)(O)C(F)(F)F.O=S(=O)(O)C(F)(F)F.O=S(=O)(O)C(F)(F)F.O=S(=O)(O)C(F)(F)F.c1ccc2c3c4ccccc4c(c2c1)-c1cn(nn1)-c1cc[n+](cc1)[Ru-]1[O]c2c4ccccc4c4c5c(c6ccccc6c(c25)=[O+]1)=[O+][Ru-]([O]4)[n+]1ccc(cc1)-n1cc(nn1)-c1c2ccccc2c(c2ccccc12)-c1cn(nn1)-c1cc[n+](cc1)[Ru-]1[O]c2c4ccccc4c4c5c(c6ccccc6c(c25)=[O+]1)=[O+][Ru-]([O]4)[n+]1ccc(cc1)-n1cc-3nn1,cell growth or viability,MTT,24 h,,,7.5 µM
CCCc1cc2cc(-n3nc(C(F)F)c4c3CC3(CCC3)CC4=O)cc(N3CCC(O)CC3)c2c(=O)[nH]1,cell growth or viability,MTS,,,,3.81 µM
CN1C(=O)CS/C1=N\N=C\c1cccc2cc3ccccc3nc12,cell growth or viability,MTT,48 h,,,36.6 µM
CCCc1cc2cc(-n3nc(C)c4c3CC(C)(C)C(C)C4=O)cc(N3CCC(O)CC3)c2c(=O)[nH]1 (racemic),cell growth or viability,MTS,,,,14 µM
Cc1cc(C(=O)N2CCNCCNCCNCC2)c(O)c(C(=O)N2CCNCCNCCNCC2)c1,cell growth or viability,MTT,24 h,,,> 10000 µM
COc1ccccc1/C=C1\C(=O)N(C)c2ccc(N(C)c3nc(C)nc4ccccc34)cc21,cell growth or viability,MTT,,,,5.57 µM
CCCC[N+]1=c2cc3c4cc2[O][Mn-2]1(=[C]=O)(=[C]=O)(=[C]=O)[n+]1ccc(cc1)C(=O)OCCOC(=O)c1cc[n+](cc1)[Mn-2](=[C]=O)(=[C]=O)(=[C]=O)([O]3)[N+]=4CCCC,cell growth,MTT,48 h,LED light photolysis 1 h,,2.18 ± 0.57 µM
O=C1CS/C(=N\N=C\c2cccc3cc4ccccc4nc23)N1c1ccc([N+](=O)[O-])cc1,cell growth or viability,MTT,48 h,,,> 50 µM
CCCc1cc2cc(-n3nc(CO)c4c3CC(C)(C)CC4=O)cc(N3CCC(O)CC3)c2c(=O)[nH]1,cell growth or viability,MTS,,,,> 50 µM
O=C(NCc1cc(F)cc(F)c1)[C@@]1(O)CCN(c2ccc3[nH]ccc3c2)C1=O,colony formation,,,,,0.074 µM
COc1c(C)c(OS(=O)(=O)c2ccccc2)c(C)c(OS(=O)(=O)c2ccccc2)c1C(=O)/C=C/c1ccccc1,cell growth or viability,SRB,72 h,,,> 50 µM

# For quick reference, copied from above:
SMILES,observed,technique,time,setting,added,IC50
COc1c(C)c(OCc2ccccc2)c(C)c(OCc2ccccc2)c1C(=O)/C=C/c1ccccc1,cell growth or viability,SRB,72 h,,,> 50 µM
CN1C(=O)CS/C1=N\N=C\c1cccc2cc3ccccc3nc12,cell growth or viability,MTT,48 h,,,36.6 µM
COc1c(C)c(OS(=O)(=O)c2ccccc2)c(C)c(OS(=O)(=O)c2ccccc2)c1C(=O)/C=C/c1ccccc1,cell growth or viability,SRB,72 h,,,> 50 µM
NC(=O)c1ccc(-c2ccccc2Cl)c2c3c([nH]c12)CCC(N)C3 (stereo not shown),cell growth or viability,,96 h,,,0.0268 µM
